Experimental data collected from several papers.
Numbered parts are unrelated; each lists some results of a single study. Positions count from the first letter of the parent shown.

Study 1 — technique: RNA Bind-n-Seq; molecule type: RNA; sample: in vitro; tested at: 365 nM; reference: no-protein control; reading: higher = stronger binding
Target: RNA binding protein fox-1 homolog 2, RRM domain, GST-SBP tag (RBFOX2, Homo sapiens, UniProt O43251-10, residues 100-194)
Setting: natural RNA segment, single round, ends assumed
All sequences stand within: GGGAGUUCUACAGUCCGACGAUC … UGGAAUUCUCGGGUGCCAA
Residues (chain): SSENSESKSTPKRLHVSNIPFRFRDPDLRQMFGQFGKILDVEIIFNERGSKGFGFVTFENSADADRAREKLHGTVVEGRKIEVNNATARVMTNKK
| Oligonucleotide | RBNS enrichment (R) |
| --- | --- |
| UCUUGGAAAGGUUCUAUUCCUGAUCUCCAGCUGUGGUGAGCAAGUUUCCUGAAGUGUUUAUUUUCUCUCAUAUCCACCAAACGUGAAUCCUGUUCCUGAUGGCCCGUUAU | 0.418 |
| UAAGUUGCUGGGGAAAGUUAGAGGAACUGAAAGUUUGGGAAUAGGCUGACCACAUAUUAUGCCAGUGACCAGUAUGACAGGAGAUGGGGCCCUGCUGCCAGUCAUCUCCA | 0.843 |
| AACUCUGAAGACAACCAAAAGAACGGAUCAAUUAAAAACUGAUUCCACUUAUAACCAUUGUAUGCUCCUUCUAGUGUUAUCAUGCACAAGAAAAGUGCCAGUUUUACCCA | 0.327 |
| ACUGACCUCUAGGAGAUUCUAGUCAGGAGCCCACUAACCUGGGCCGUCAUGUUUAGAGCUGAAGGAGUCUUCAUAGCCCAGGCUGUCCUGGGUAUUGCAGGAUGCUGAUU | 0.633 |
| CAGCGUGUCCCCAGACGCAGACCUCAAGGGCCUUCUCCAGCGGCUGGAGACAGCCUGAAAAGCAAAGGCCUCAUCUCCAUGGCACAGGGGAGAAGCGCAUCUACCGGGUG | 0.183 |
| AGGCAGUUAUCACCCCUCUGCUGCCGUAUUCAUCACCCAGGCUCUCUUACAAGUUCCUUGUUAAUGCACAAGCGUAGGGACCCUUGUACAGACUCUGGCAGUAUUGAUGA | 0.628 |
| CUUCCUCACCGCAGAUGUUUCUGCCUCUUAAGGAUAGAUCUUCUGCAACAGUCUUGCUGACAAGCUAGAGCUUGGACUGAAAGAGAAGAGCUGGAUUAUAUAUUUCCCAG | 0.286 |
| ACAAAUGUAUUUUCAGUGAGUCUGAGUCGGGUGUAUGUGGGUUUUUUGGUUCUUGGCUUGGGGCUUUUUGUUGUUGUUGUUCUUAAUAAUAUGAGAAUCCAGUUCUCAUG | 1.94 |
| UCCUUUUCCACCCCACACCCUGAAGCCAUUGGAAAACUGGCUUCCUGUGCACUUCUAGAAUCCCAGCAGCCAAGAGCCGUUGGGGCAGGAGGGCCUGUGGUGACCUACUG | 0.638 |
| UUUAGAGUAAUUAUUUUAAGCAAAUAGCCUGGACGUAAGAGAUUCUCAUGCCAGCAUGCUUUCAUUUGUCAGUUGUUGUGACUGAGAGAUAAUGAAUGACACCUGAAAUG | 1.38 |
| CUCUGCAGAUGGUGAAGCCUUUGAGGCAGCCUCUUGCUUUCUCCUGUGGGUCCCUUGUGCCCACAGUGUGUAGAGAAGAGCAGGUGCAUGGGGCCAGGGGACCAAGAGUC | 4.06 |
| AUAGUUAGUGCCACAAGAUAAAUAAAAGAAACUAAAGGAUUACAAUUUGAACUUUUCAAGAAGUAGGUCCUAGUACUUGGGAUCUUGUUAGAUCUGUGCUCUGGAGGUGG | 0.335 |

Study 2 — target: CCNF, cyclin fold, Cln2 fusion (human); technique: yeast growth competition, sequencing; sample: yeast; setting: strong parent motif; reference: not given; reading: higher = stronger binding
Starting sequence: CDC6 docking peptide (human); TLKGRRLVFDNQL
| Change | normalised enrichment score |
| --- | --- |
| L2D | 6.35 |
| F9R | 0.18 |
| D10V | 7.24 |
| R6K | 8.25 |
| L2E | 5.66 |
| R5Y | 0.941 |
| L2Y | 7.85 |
| R5P | -0.199 |
| V8K | 7.42 |
| L7D | 0.552 |
| L7S | 0.394 |
| R5L | 1.65 |
| N11A | 9.27 |
| F9A | 0.529 |
| K3S | 7.29 |
| V8D | 8.34 |
| D10H | 8.13 |
| V8F | 9.81 |
| K3A | 7.05 |
| Q12D | 8.4 |
| V8R | 8.17 |
| G4N | 5.35 |
| G4M | 4.2 |
| R5K F9L | 2.63 |
| G4I | 4.64 |

Study 3 — target: BATF, bZIP domain (human); technique: DHFR protein complementation; sample: yeast; reference: wild-type JUN-FOS pair; reading: higher = stronger binding
Setting: single substitutions, most at no-binding floor
Starting sequence: JUN, bZIP domain (human); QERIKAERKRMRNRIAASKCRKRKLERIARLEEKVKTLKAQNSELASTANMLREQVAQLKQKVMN; partner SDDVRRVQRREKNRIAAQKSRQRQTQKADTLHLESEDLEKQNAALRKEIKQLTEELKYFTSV
| Change | binding fitness [natural log] |
| --- | --- |
| A49S | -0.361 |
| E54A | -0.0644 |
| L38G | -0.704 |
| L52W | -1.11 |
| V35N | -0.188 |
| L52S | -1.34 |
| K39H | -0.131 |
| A46C | -0.0522 |
| T37Y | -0.0329 |
| V56R | -0.919 |
| T48I | -0.133 |
| T48P | -1.25 |
| Q41F | -1.3 |
| K36H | -0.0956 |
| T37P | -1.15 |
| L45I | -0.969 |
| L52D | -1.33 |
| L45Q | -1.39 |

Study 4 — technique: aptamer microarray, sandwich; molecule type: DNA with 2'F-ANA; sample: in vitro; tested at: 200 nM; with: Cy3 exosite-II aptamer, 400 nM; reading: higher = stronger binding; oligonucleotide: GGTTGGTGTGGTTGG
Target: Prothrombin, mature alpha-thrombin (F2, Homo sapiens, UniProt P00734)
Setting: whole 15-mer aptamer, many near background
| Modification | mean fluorescence intensity [a.u.] |
| --- | --- |
| 2'F-ANA at 1 2 4 7 8 11 12 13 14 15 | 64.1 |
| 2'F-ANA at 1 2 3 7 10 11 13 | 62.5 |
| 2'F-ANA at 2 3 6 7 10 | 376 |
| 2'F-ANA at 1 2 4 6 7 15 | 143 |
| 2'F-ANA at 6 7 10 15 | 155 |
| 2'F-ANA at 1 5 7 8 9 10 11 14 15 | 49.1 |
| 2'F-ANA at 1 3 6 7 8 9 10 13 15 | 76.5 |
| 2'F-ANA at 3 7 8 9 10 11 13 14 15 | 426 |
| 2'F-ANA at 1 2 4 5 6 7 10 12 13 | 46.8 |
| 2'F-ANA at 1 2 3 5 13 14 | 71.4 |
| 2'F-ANA at 2 4 5 7 12 | 135 |
| 2'F-ANA at 3 5 6 10 11 12 14 | 49.7 |
| 2'F-ANA at 1 3 6 8 11 12 15 | 438 |
| 2'F-ANA at 5 8 9 10 11 13 14 15 | 47.2 |
| 2'F-ANA at 1 4 5 10 15 | 45.4 |
| 2'F-ANA at 2 5 8 10 12 14 | 68.5 |
| 2'F-ANA at 3 4 5 7 9 14 15 | 55.4 |
| 2'F-ANA at 1 2 3 4 5 8 9 11 | 58.9 |
| 2'F-ANA at 1 2 7 8 9 13 14 15 | 63.9 |
| 2'F-ANA at 1 2 4 5 8 14 | 43.9 |
| 2'F-ANA at 1 2 4 5 6 10 12 | 60.5 |
| 2'F-ANA at 1 2 8 9 14 15 | 57.9 |

Mixed results
| Substance | target | test | test system | setting | how to read | endpoint | value |
| --- | --- | --- | --- | --- | --- | --- | --- |
| PhoQ, residues 284 288 289 292 302 303 SASVAL | PhoP, residues 12 14 15 18 19 AQCLL (Escherichia coli, UniProt P23836) | Sort-seq, measured: YFP reporter | E. coli | PhoQ-PhoP variant library, with: 10 µM Mg2+ | reference: high Mg2+ state, higher = stronger signaling | fold induction | 4.7 |

Excerpt of the above (study 3):
| Change | binding fitness [natural log] |
| --- | --- |
| T37Y | -0.0329 |
| V56R | -0.919 |
| T48I | -0.133 |
| T48P | -1.25 |
| Q41F | -1.3 |
| K36H | -0.0956 |
| T37P | -1.15 |
| L45I | -0.969 |
